Measurements gathered from unrelated publications.
Protocols differ between the studies behind these lines. Numbers after ± are the reported error.
Cell line: MDA-MB-231

`C1=[N+]2CCCC[N+]3=Cc4ccc5[n]4[Au-]23[n]2c1ccc2-c1nc2ccccc2nc1-5.F[P-](F)(F)(F)(F)F` gave a TGI of 4 -log M (NCI60 five-dose screen).
`CC(=O)OCC1=C2C(C)=CC(C)=[N+]2[B-](C)(C)n2c(C)cc(C)c21` has an EC50 of > 50 µM (cell growth or viability, MTT; dark).
`COc1ccccc1CNC[C@@](O)(COCc1ccccc1)[C@@H]1CC[C@@H](C)C[C@H]1OCc1ccccc1` gave an inhibition of 98.4% (cell growth or viability, MTT; 30 µM, 72 h).
For `CCCNC(=O)[C@H]1O[C@@H]1C(=O)N[C@H](C(=O)N1CCC[C@H]1C(=O)OCC1=C2C(C)=CC(C)=[N+]2[B-](C)(C)n2c(C)cc(C)c21)[C@@H](C)CC`, the EC50 was 2.5 ± 0.22 µM (cell viability, MTT; concentration not given, 4 h, irradiated 15 min up to 470 nm).
`C[C@H]1O[C@@H]2C3=C(O[C@]2(C)[C@@]1(O)C=O)C(=O)c1c(O)cccc1C3=O` gave an EC50 of 7.84 µM (cell growth or viability, MTT; 48 h).
With `COc1ccc(CNC[C@@](O)(COCc2ccc(OC)cc2)[C@@H]2CC[C@@H](C)C[C@H]2OCc2ccc(OC)cc2)cc1` the inhibition was 97.1% (cell growth or viability, MTT; 10 µM, 72 h).
With `CCCNC(=O)[C@H]1O[C@@H]1C(=O)N[C@H](C(=O)N1CCC[C@H]1C(=O)OCC1=C2C(C)=CC(C)=[N+]2[B-](F)(F)n2c(C)cc(C)c21)[C@@H](C)CC` the EC50 was > 50 µM (cell viability, MTT; concentration not given, 72 h, irradiated 15 min up to 470 nm).
The inhibition of `Cc1nc2c(F)cc(-c3nc(Nc4ccc(CNC(=O)CCCCCC(=O)NO)cc4)ncc3F)cc2n1C(C)C` is reported as 96.2% (cell growth or viability, CCK-8; 0.3 µM, 48 h).
With `Cc1ccc(-n2cc(CSc3nc4ccccc4n3Cc3cn(-c4ccc(C)cc4)nn3)nn2)cc1` the viability was 60.1% (MTT; 3.91 ppm).
`CC(=O)[O][Pd][c]1ccccc1-n1nc(C)cc1C.CC(=O)[O][Pd][c]1ccccc1-n1nc(C)cc1C` — result for “caspase-3/7 active cells”: 34.1 ± 2.26% (FLICA flow cytometry; 25 µM, 24 h).
The inhibition of `C[C@@H]1CC[C@@H]([C@@](O)(COCc2ccccc2)Cn2cnc3ccccc32)[C@H](OCc2ccccc2)C1` is reported as 98.3% (cell growth or viability, MTT; 30 µM, 72 h).
For `CCc1c(C)c2ccc(OC(C)C)c(C)c2oc1=O`, the viability was 88.8% (cell growth or viability, MTT; 31.25 µg/mL).
`CC(=O)OC[C@H]1O[C@@H](n2cc(CSc3nc4ccccc4n3Cc3cn([C@@H]4O[C@H](COC(C)=O)[C@@H](OC(C)=O)C(OC(C)=O)[C@H]4OC(C)=O)nn3)nn2)[C@H](OC(C)=O)C(OC(C)=O)[C@@H]1OC(C)=O` (stereo in doubt) has a cytotoxicity of 82.2% (MTT; 15.6 ppm).
For `COc1cccc(CNC[C@@](O)(COCc2ccccc2)[C@@H]2CC[C@@H](C)C[C@H]2OCc2ccccc2)c1`, the inhibition was 94.5% (cell growth or viability, MTT; 30 µM, 72 h).
`O=C(CCl)c1ccccc1Nc1cccc(C(F)(F)F)c1` gave a GI50 of 12.3 µM (cell growth or viability, SRB; 48 h).
With `C[C@@H]1CC[C@@H]([C@](O)(CNCc2cccc(F)c2)COCc2ccccc2)[C@H](OCc2ccccc2)C1` the inhibition was 95.4% (cell growth or viability, MTT; 10 µM, 72 h).
Under “late apoptotic cells”, `CC(=O)[O][Pd][c]1ccccc1N1N=C(C)C(C)(C)C1=O.CC(=O)[O][Pd][c]1ccccc1N1N=C(C)C(C)(C)C1=O` is recorded as 9.43 ± 1.02% (annexin V/PI flow cytometry; 25 µM, 24 h).

A few entries again:
With `COc1ccc(CNC[C@@](O)(COCc2ccc(OC)cc2)[C@@H]2CC[C@@H](C)C[C@H]2OCc2ccc(OC)cc2)cc1` the inhibition was 97.1% (cell growth or viability, MTT; 10 µM, 72 h).
`O=C(CCl)c1ccccc1Nc1cccc(C(F)(F)F)c1` gave a GI50 of 12.3 µM (cell growth or viability, SRB; 48 h).
With `C[C@@H]1CC[C@@H]([C@](O)(CNCc2cccc(F)c2)COCc2ccccc2)[C@H](OCc2ccccc2)C1` the inhibition was 95.4% (cell growth or viability, MTT; 10 µM, 72 h).
